Assay results from different studies.
Protocols differ between the studies behind these lines. “And” joins repeats or separate records; there may be more than shown. ± marks the error that the study gave.
CTSS: Cathepsin S (CTSS, Homo sapiens, UniProt P25774)
NR1I2: Nuclear receptor subfamily 1 group I member 2 (NR1I2, Homo sapiens, UniProt O75469)
UniProt O75469, sequence (whole entry, looked up): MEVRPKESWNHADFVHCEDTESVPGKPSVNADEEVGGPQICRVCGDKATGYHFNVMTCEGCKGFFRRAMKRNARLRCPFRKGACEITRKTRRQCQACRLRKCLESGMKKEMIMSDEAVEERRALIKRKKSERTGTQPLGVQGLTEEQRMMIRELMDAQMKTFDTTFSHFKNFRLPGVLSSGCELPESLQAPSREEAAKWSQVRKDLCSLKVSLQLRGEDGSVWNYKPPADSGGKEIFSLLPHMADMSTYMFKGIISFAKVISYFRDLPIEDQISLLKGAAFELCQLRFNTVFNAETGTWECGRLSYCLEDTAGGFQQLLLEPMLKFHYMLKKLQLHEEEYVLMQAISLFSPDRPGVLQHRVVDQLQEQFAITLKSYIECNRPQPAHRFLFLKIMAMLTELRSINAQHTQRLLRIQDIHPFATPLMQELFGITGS
CYP2C8: Cytochrome P450 2C8 (CYP2C8, Homo sapiens, UniProt P10632)
UniProt P11510, sequence (whole entry, looked up): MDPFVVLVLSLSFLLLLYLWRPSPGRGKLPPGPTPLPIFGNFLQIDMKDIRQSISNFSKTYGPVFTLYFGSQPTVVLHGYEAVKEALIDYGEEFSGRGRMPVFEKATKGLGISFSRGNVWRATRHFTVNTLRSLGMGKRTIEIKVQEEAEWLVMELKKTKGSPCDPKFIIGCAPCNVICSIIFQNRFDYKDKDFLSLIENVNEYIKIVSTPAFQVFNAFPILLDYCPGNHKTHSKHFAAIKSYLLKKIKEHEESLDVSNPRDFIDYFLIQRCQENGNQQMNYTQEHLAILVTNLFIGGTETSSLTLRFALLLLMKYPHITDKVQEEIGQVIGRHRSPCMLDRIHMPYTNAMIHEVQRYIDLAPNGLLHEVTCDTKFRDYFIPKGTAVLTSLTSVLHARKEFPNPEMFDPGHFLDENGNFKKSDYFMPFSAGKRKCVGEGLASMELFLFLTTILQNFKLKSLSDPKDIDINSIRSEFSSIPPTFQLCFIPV
UniProt P10632, sequence (whole entry, looked up): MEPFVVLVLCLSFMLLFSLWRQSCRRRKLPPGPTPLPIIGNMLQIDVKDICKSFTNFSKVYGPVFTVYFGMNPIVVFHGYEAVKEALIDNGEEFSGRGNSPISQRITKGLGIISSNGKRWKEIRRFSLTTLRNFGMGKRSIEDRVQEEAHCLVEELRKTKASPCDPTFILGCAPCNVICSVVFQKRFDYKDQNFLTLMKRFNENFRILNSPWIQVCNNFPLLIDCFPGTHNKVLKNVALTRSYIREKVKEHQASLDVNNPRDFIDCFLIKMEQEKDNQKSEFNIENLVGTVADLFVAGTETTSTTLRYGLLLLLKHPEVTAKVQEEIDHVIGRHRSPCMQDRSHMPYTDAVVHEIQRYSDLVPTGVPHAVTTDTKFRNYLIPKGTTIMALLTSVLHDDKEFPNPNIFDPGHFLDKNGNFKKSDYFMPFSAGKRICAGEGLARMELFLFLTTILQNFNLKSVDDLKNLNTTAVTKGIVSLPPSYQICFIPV
UniProt Q08499, sequence (whole entry, looked up): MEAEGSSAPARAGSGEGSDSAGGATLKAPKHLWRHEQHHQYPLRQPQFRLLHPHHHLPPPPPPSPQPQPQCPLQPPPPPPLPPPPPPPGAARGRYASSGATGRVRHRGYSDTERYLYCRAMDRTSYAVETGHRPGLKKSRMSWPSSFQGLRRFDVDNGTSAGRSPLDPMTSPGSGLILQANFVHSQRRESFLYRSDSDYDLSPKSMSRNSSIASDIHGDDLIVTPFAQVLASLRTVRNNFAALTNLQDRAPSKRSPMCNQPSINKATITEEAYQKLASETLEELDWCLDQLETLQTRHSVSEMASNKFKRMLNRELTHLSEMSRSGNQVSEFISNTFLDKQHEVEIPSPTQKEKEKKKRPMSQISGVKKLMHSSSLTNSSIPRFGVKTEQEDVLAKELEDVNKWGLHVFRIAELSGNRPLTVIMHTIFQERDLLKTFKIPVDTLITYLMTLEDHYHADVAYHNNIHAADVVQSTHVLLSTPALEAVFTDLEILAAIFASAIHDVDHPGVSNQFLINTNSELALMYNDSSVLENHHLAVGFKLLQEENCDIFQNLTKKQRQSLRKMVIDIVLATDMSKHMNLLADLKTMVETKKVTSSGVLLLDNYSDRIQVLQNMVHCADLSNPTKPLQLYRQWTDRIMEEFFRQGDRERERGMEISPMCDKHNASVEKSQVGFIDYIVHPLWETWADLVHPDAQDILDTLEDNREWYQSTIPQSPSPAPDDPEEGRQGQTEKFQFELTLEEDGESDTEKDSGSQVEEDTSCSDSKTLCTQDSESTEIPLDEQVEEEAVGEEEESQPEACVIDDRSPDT
UniProt P27487, sequence (whole entry, looked up): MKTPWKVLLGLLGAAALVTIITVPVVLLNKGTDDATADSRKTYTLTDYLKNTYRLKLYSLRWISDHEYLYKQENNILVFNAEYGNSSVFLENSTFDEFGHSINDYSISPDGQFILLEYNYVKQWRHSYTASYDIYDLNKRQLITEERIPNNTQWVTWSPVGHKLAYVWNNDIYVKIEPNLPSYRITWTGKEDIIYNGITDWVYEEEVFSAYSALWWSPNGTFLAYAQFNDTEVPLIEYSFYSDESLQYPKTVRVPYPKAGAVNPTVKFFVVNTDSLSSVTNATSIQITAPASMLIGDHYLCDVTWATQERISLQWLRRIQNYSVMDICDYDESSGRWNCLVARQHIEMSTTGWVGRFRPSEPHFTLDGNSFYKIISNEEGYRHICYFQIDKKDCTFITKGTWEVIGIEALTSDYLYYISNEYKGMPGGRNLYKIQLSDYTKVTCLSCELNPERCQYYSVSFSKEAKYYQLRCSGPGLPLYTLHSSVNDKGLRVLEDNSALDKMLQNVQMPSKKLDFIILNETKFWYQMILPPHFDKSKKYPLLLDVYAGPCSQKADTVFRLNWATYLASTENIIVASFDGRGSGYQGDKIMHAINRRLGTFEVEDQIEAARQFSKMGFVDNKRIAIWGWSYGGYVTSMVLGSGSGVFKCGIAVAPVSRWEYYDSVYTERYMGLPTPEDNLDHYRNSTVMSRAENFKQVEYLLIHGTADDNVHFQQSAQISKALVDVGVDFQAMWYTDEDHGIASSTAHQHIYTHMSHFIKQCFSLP
UniProt O55242, sequence (whole entry, looked up): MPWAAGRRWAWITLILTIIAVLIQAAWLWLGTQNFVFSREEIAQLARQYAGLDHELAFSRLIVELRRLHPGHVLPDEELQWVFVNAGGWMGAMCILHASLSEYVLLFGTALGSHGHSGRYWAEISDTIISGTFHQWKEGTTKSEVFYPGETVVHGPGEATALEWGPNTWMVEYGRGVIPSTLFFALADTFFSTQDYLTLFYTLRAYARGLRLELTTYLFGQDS
UniProt P08684, sequence (whole entry, looked up): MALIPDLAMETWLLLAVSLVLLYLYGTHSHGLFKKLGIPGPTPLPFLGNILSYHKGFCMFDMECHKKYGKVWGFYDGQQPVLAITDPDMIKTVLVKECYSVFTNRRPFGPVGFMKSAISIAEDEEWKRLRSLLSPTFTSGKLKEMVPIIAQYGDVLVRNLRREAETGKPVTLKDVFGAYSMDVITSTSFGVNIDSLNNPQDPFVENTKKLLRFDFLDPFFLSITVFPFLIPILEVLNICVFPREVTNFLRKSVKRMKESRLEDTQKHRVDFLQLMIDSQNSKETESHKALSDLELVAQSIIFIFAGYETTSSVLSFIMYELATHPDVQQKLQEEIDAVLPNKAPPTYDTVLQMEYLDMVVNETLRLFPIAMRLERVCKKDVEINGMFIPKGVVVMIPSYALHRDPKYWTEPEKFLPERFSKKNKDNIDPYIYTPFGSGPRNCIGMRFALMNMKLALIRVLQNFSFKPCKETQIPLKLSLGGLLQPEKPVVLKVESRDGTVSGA

COc1cc(-c2nc3ccccc3s2)cc(CN2Cc3cccc(n3)CN(CC(=O)O)Cc3cccc(n3)C2)c1O  pCu (copper(2+) ion; Cu2+ binding, from titration constants; aqueous solution; 50 µM, pH 7.4, Cu:ligand 1:1, equal totals): 14.1
[64Cu+2].c1ccc(CNCc2ccc(CN3CCCN4CCNCCCN(CC4)CC3)cc2)nc1  tissue uptake (CXCR4; NOD/SCID mouse, U87 and U87-stb-CXCR4 xenografts, liver; iv, 30 min, ex vivo): 79.5 ± 20.9 %ID/g
COc1cc(-c2nc3ccccc3s2)cc(CN2CCN(C)CCN(C)CC2)c1O  pCu (copper(2+) ion; Cu2+ binding, from titration constants; aqueous solution; 50 µM, pH 7.4, Cu:ligand 1:1, equal totals): 13.3
CSCC[C@H](NC(=O)[C@@H]1CCCN1C(=O)[C@@H](COC(C)(C)C)NC(=O)[C@@H](COC(C)(C)C)NC(=O)CNC(=O)CN1CCN(CC(=O)OC(C)(C)C)CCN(CC(=O)OC(C)(C)C)CCN(CC(=O)OC(C)(C)C)CC1)C(=O)NCC(=O)N[C@@H](CC(C)C)C(=O)N1CCC[C@H]1C(=O)O  fraction metabolized (CTSS; cleavage, substrate; 72 h, pH 6.0, room temperature, un-metalated): 80%
CCC(=O)N(C)c1ccc(Cl)c(Cl)c1  fold activation (NR1I2; reporter gene, agonist; 3.2 µM; relative to: vehicle): 1.18 fold
[64Cu+2].c1cnc(CNCc2ccc(CN3CCCN4CCNCCCN(CC4)CC3)cc2)nc1  tissue uptake (CXCR4; NOD/SCID mouse, U87 and U87-stb-CXCR4 xenografts, pancreas; iv, 30 min, ex vivo): 1.61 ± 0.08 %ID/g
[123I]c1ccc2nc(-c3ccc(-n4ccnn4)nc3)cn2c1  maximum SUV (Amyloid-beta precursor protein, amyloid-beta (APP, Homo sapiens, UniProt P05067); SPECT; healthy controls, brain; intravenous): ~2.5
NS(=O)(=O)Nc1ncnc(OCCOc2ncc(Br)cn2)c1-c1ccc(Br)cc1  contribution to total CLint (Cytochrome P450 2C12, female-specific (Cyp2c12, Rattus norvegicus, UniProt P11510); substrate, refers to: compound formation; rat, male; pH 7.4, mRNA abundance scaled): < 0.1% and < 1%
NC(=S)N/N=C/c1ccccc1O  log stability constant (Fe2+ complex; potentiometric titration; 25 °C): 17.2
COc1cc(-c2nc3ccccc3s2)cc(CN2Cc3cccc(n3)CNCc3cccc(n3)C2)c1O  pCu (copper(2+) ion; Cu2+ binding, from titration constants; aqueous solution; 50 µM, pH 6.6, Cu:ligand 1:1, equal totals): 11.7
CCCCCCCCCCCCCCCC(=O)OCC(CSC[C@H](N)C(=O)N[C@@H](CO)C(=O)N[C@@H](CCCCN)C(=O)N[C@@H](CCCCN)C(=O)N[C@@H](CCCCN)C(=O)N[C@@H](CCCCN)C(=O)NCCCCCC(=O)N[C@@H](CCCCN)C(=O)N[C@@H](CC(C)C)C(=O)N[C@H](C(=O)N[C@@H](Cc1ccccc1)C(=O)N[C@@H](Cc1ccccc1)C(=O)N[C@@H](Cc1ccc2ccccc2c1)C(=O)O)C(C)C)OC(=O)CCCCCCCCCCCCCCC (stereo partly drawn)  hydrodynamic diameter (Amyloid-beta precursor protein, fibrillar amyloid-beta (APP, Homo sapiens, UniProt P05067); dynamic light scattering; 20 µM, compound alone, whole sample): ~66 nm
[11CH3]Oc1ccc(Cc2cn[nH]c2)nc1-c1cccc([N+](=O)[O-])c1  peak brain radioactivity (PDE4D (Homo sapiens, UniProt Q08499); PET; concentration not given, about 4 min, baseline scan): 4.39 SUV
[11CH3]N1CCN(CCCOc2ccc(=O)n(-c3ccc(Cl)c(Cl)c3)n2)CC1  maximum uptake (Sigmar1 (Mus musculus, UniProt O55242); radiotracer; mouse BALB/c male, whole brain; intravenous, 5 min): 7.66 %ID/cc
C=CC(=O)Nc1cc(Nc2nccc(-c3cn(C)c4ccccc34)n2)c(OCC(F)(F)F)nc1N(C)CCN(C)C  activity vs control (CYP2C8; enzyme activity, inhibitor; human, liver microsomes; 0.33 µM): 105%
COc1ccc2c(c1)C=C(C(=O)N1C[C@@H](C)O[C@@H](C)C1)Cn1c-2c(C2CCCCC2)c2ccc(C(=O)NS(=O)(=O)N(C)C)cc21  IC50 (NR1I2; PXR activation): > 10 µM
CC(=O)Nc1ncc(CN2CC[C@H](Oc3cccc(F)n3)C[C@@H]2C)s1  efflux ratio (MRP1 (ABCC1); substrate): 0.85
CC[C@H](C)[C@H](NC(=O)[C@H](Cc1ccccc1)NC(=O)[C@H](CCC(=O)O)NC(=O)[C@H](CCCCN)NC(=O)[C@H](C)NC(=O)[C@H](C)NC(=O)[C@H](CCC(N)=O)NC(=O)CNC(=O)[C@H](CCC(=O)O)NC(=O)[C@H](CC(C)C)NC(=O)[C@H](Cc1ccc(O)cc1)NC(=O)[C@H](CO)NC(=O)[C@H](CO)NC(=O)[C@@H](NC(=O)[C@H](CC(=O)O)NC(=O)[C@H](CO)NC(=O)[C@@H](NC(=O)[C@H](Cc1ccccc1)NC(=O)[C@@H](NC(=O)CNC(=O)[C@H](CCC(=O)O)NC(=O)[C@H](C)NC(=O)[C@@H](N)Cc1c[nH]cn1)[C@@H](C)O)[C@@H](C)O)C(C)C)C(=O)N[C@@H](C)C(=O)N[C@@H](Cc1c[nH]c2ccccc12)C(=O)N[C@@H](CC(C)C)C(=O)N[C@H](C(=O)N[C@@H](CCCNC(=N)N)C(=O)NCC(=O)N[C@@H](CCCNC(=N)N)C(=O)NCC(=O)O)C(C)C  half-life (DPP4 (Homo sapiens, UniProt P27487); proteolytic stability, substrate, HPLC-UV; up to 24 h, pH 7.4, 37 °C, added: recombinant enzyme 16 nmol/l): 18 ± 6 min
NC(=S)N/N=C/c1cc(Cl)ccc1O  log stability constant (Fe2+ complex; potentiometric titration; 25 °C): 17
COc1cc(-c2nc3ccccc3s2)cc(CN2Cc3cccc(n3)CN(C)Cc3cccc(n3)C2)c1O  pCu (copper(2+) ion; Cu2+ binding, from titration constants; aqueous solution; 50 µM, pH 6.6, Cu:ligand 1:1, equal totals): 11.5
CC(=O)N[C@H](C(=O)N[C@H](C(=O)N[C@@H](CCCNC(=N)N)C(=O)N1Cc2ccccc2C[C@H]1C(=O)N[C@@H](Cc1ccccc1)C(N)=O)C1CCCCC1)C(C)C  half-life (CTSS; substrate; isolated enzyme in acetate buffer; 1 mg/mL, pH 5.5, 0.15 U enzyme per µmol compound): 1200 min
O=c1c(/C=N/NC(=S)N/N=C/c2cc(Cl)ccc2O)coc2ccccc12  log stability constant (Fe2+ complex; potentiometric titration; 25 °C): 18.2
CCC1CC2C(C)=CC3C(=O)CCCC3C=CC(C)=CC2C(=O)O1 (stereo not drawn)  remaining activity (CYP2C8; human liver microsomes; 10 µM, 10 min, pH 7.4, added: amodiaquine 1 µM; relative to: untreated): 121%
CNC(=S)N/N=C/c1ccccn1  log stability constant (Fe2+ complex; potentiometric titration; 25 °C): 17.1
COc1ccc2cc(NC(=O)c3cc(-c4ccncc4)nc4ccccc34)ccc2c1  kcat/Km (Cytochrome P450 3A4 (CYP3A4, Homo sapiens, UniProt P08684); substrate, refers to: metabolite M1; baculosomes): 0.68 min⁻¹ µM⁻¹

Excerpt of the above:
COc1cc(-c2nc3ccccc3s2)cc(CN2Cc3cccc(n3)CNCc3cccc(n3)C2)c1O  pCu (copper(2+) ion; Cu2+ binding, from titration constants; aqueous solution; 50 µM, pH 6.6, Cu:ligand 1:1, equal totals): 11.7
CCCCCCCCCCCCCCCC(=O)OCC(CSC[C@H](N)C(=O)N[C@@H](CO)C(=O)N[C@@H](CCCCN)C(=O)N[C@@H](CCCCN)C(=O)N[C@@H](CCCCN)C(=O)N[C@@H](CCCCN)C(=O)NCCCCCC(=O)N[C@@H](CCCCN)C(=O)N[C@@H](CC(C)C)C(=O)N[C@H](C(=O)N[C@@H](Cc1ccccc1)C(=O)N[C@@H](Cc1ccccc1)C(=O)N[C@@H](Cc1ccc2ccccc2c1)C(=O)O)C(C)C)OC(=O)CCCCCCCCCCCCCCC (stereo partly drawn)  hydrodynamic diameter (Amyloid-beta precursor protein, fibrillar amyloid-beta (APP, Homo sapiens, UniProt P05067); dynamic light scattering; 20 µM, compound alone, whole sample): ~66 nm
[11CH3]Oc1ccc(Cc2cn[nH]c2)nc1-c1cccc([N+](=O)[O-])c1  peak brain radioactivity (PDE4D (Homo sapiens, UniProt Q08499); PET; concentration not given, about 4 min, baseline scan): 4.39 SUV
